Measured values of several laboratories.
Each numbered part is a random draw from the data of one study; scales do not carry over between parts. “And” joins repeats or separate records; there may be more than shown.

Study 1
Cell line: HaCaT
Concentration: 100 µM
Time: 36 h
Measurement: viability
CCCC(C(=O)OCCN(CC)CC)(c1ccccc1)c1ccccc1: 5.42%
Oc1c(I)cc(Cl)c2cccnc12: 5.7%
Nc1cccc2c1C(=O)N(C1CCC(=O)NC1=O)C2=O (stereo not drawn): 92.2%
COc1cc2ccc(=O)oc2c(O)c1O: 115%
Cn1c(NCCN(CCO)CCCc2ccc([N+](=O)[O-])cc2)cc(=O)n(C)c1=O: 99.8%
O=c1[nH]c(=O)n([C@H]2C[C@H](O)[C@@H](CO)O2)cc1C(F)(F)F: 43.8%
OC(CCN1CCCCC1)(c1ccccc1)C1C[C@@H]2C=C[C@H]1C2 (stereo partly drawn): 5.21%
C#C[C@]1(O)CC[C@H]2[C@@H]3CCC4=Cc5oncc5C[C@]4(C)[C@H]3CC[C@@]21C: 5.4%
CN(C)CC/C=C1/c2ccccc2COc2ccc(CC(=O)O)cc21: 90.9%
C[N+]1(C)[C@@H]2CC[C@H]1C[C@@H](OC(=O)C(O)c1ccccc1)C2 (stereo partly drawn): 49.2%
O=S(=O)(O)Oc1ccc(C(c2ccc(OS(=O)(=O)O)cc2)c2ccccn2)cc1: 99.1%

Study 2
Structure (SMILES): CC(C)(C(=O)O)[C@H](NC(=O)Cc1cccc(I)c1)c1ccc2oc(=O)[nH]c2c1
Technique: Incucyte 3D growth
Concentration: 30 µM
Direction: higher = more growth
Measurement: spheroid area
KP-4; 42 h: 1.47e+07 a.u. and 1.44e+07 a.u. and 1.22e+07 a.u. and 1.4e+07 a.u. and 1.24e+07 a.u.
PC-9; 18 h: 2.64e+08 a.u. and 2.72e+08 a.u. and 2.92e+08 a.u. and 2.74e+08 a.u. and 2.7e+08 a.u.
NCI-H358; 48 h: 4.01e+06 a.u. and 4.17e+06 a.u. and 4.55e+06 a.u. and 3.47e+06 a.u. and 3.87e+06 a.u. and 2.98e+06 a.u.
MEL-JUSO; 240.52 h: 1.94e+07 a.u. and 1.5e+07 a.u. and 3.04e+07 a.u. and 1.64e+07 a.u. and 1.95e+07 a.u. and 1.63e+07 a.u.
A375; 324.52 h: 1.75e+08 a.u. and 1.69e+08 a.u. and 1.97e+08 a.u. and 1.74e+08 a.u. and 1.93e+08 a.u.
A375; 204.52 h: 1.35e+08 a.u. and 1.42e+08 a.u. and 1.5e+08 a.u. and 1.61e+08 a.u. and 1.51e+08 a.u. and 1.65e+08 a.u.
KP-4; 48 h: 1.18e+07 a.u. and 1.31e+07 a.u. and 1.46e+07 a.u. and 1.3e+07 a.u. and 1.5e+07 a.u. and 1.43e+07 a.u.

Study 3
Cell line: mouse MPNST tumor cells
Technique: high-content immunofluorescence imaging
Refers to: nuclear SOX9
Concentration: 10 µM
Time: 12 h
Setting: mean of 2 replicates
Baseline: DMSO control
Direction: higher = more nuclear SOX9
Measurement: nuclear SOX9 intensity
Cc1nnsc1C(=O)Nc1ccc(-n2nc(C(F)(F)F)cc2C(F)(F)F)cc1: 130 % of DMSO
CC(C)Nc1cc(-c2csc(N(C)C(=O)c3ccc(F)cc3)n2)ncn1: 100 % of DMSO
CC(C(=O)O)c1ccc(N2Cc3ccccc3C2=O)cc1 (stereo not drawn): 94.9 % of DMSO
O=c1[nH]c2cc(Cl)ccc2c(O)c1-c1cccc(Oc2ccccc2)c1: 100 % of DMSO
C[C@@H](O)[C@H]1C(=O)N2C(C(=O)O)=C(SCCNC=N)C[C@H]12: 87.9 % of DMSO
COc1ccc(-c2cnc3c(-c4cccc5ncccc45)cnn3c2)cc1: 176 % of DMSO
O=c1oc2c(C3OCCCO3)c(O)ccc2c2c1CNCC2: 101 % of DMSO
CCc1nc2c(o1)CC(c1ccc(C)cc1C)CC2=O (racemic): 106 % of DMSO

Mixed results
Cn1cncc1[C@@](O)(COc1ccc(C#N)cc1-c1ccc(OC(F)(F)F)cc1)c1ccc(C#N)cc1
apoptotic cells (HEK293T; high-content imaging; 10 µM, 12 h): 34.2% and 22.7%

Excerpt of the above (study 1):
C[N+]1(C)[C@@H]2CC[C@H]1C[C@@H](OC(=O)C(O)c1ccccc1)C2 (stereo partly drawn): 49.2%
Cn1c(NCCN(CCO)CCCc2ccc([N+](=O)[O-])cc2)cc(=O)n(C)c1=O: 99.8%
Oc1c(I)cc(Cl)c2cccnc12: 5.7%
